Experimental data from different studies.
Every numbered part comes from another study and shows a few of its results, in no order.

Set 1
Target: Cyclic AMP-responsive element-binding protein 1 (CREB1, Homo sapiens, UniProt P16220, residues 1-327, full length assumed)
Chain of UniProt P16220 (whole entry, looked up): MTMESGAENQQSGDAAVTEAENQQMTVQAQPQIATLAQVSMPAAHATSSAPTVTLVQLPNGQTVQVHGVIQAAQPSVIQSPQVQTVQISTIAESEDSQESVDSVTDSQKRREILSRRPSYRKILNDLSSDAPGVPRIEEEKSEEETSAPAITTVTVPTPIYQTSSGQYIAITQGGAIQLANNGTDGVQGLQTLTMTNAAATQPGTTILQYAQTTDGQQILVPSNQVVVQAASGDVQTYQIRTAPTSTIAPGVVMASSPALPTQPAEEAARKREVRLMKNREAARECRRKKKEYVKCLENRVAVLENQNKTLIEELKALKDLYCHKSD
Method: protein-binding microarray
Form: double-stranded DNA, one strand shown
Matrix: in vitro
Concentration: not given
Setting: k-mer, scored over probes, only values ≥0.25
Reading: higher = stronger binding
Endpoint: E-score
Sequence = ATAAATG; value = 0.263
Sequence = TGCGTAA; value = 0.317
Sequence = TATTGCA; value = 0.255
Sequence = AGTCACG; value = 0.261
Sequence = ACACGTA; value = 0.409
Sequence = ATATAAA; value = 0.263
Sequence = ATGACAC; value = 0.276
Sequence = GCGTCAC; value = 0.482
Sequence = CCGTCAC; value = 0.333
Sequence = GTAATAA; value = 0.325
Sequence = CATTACA; value = 0.282
Sequence = GTCATGA; value = 0.266
Sequence = AATGCGT; value = 0.263
Sequence = TATTACA; value = 0.283
Sequence = ACGTATA; value = 0.387
Sequence = ACCTGTA; value = 0.252
Sequence = CTCTGAC; value = 0.287
Sequence = CACACTA; value = 0.255
Sequence = TAACAGA; value = 0.285
Sequence = ACGTAAT; value = 0.475
Sequence = ATAATCA; value = 0.254

Set 2
Target: Sal-like protein 4, full length isoform B (SALL4, Homo sapiens, UniProt Q9UJQ4-2, residues 1-616)
Method: universal PBM
Form: double-stranded DNA, one strand shown
Matrix: in vitro
Concentration: not given
Setting: 8-mer, flanks averaged, mean of replicates
Reading: higher = stronger binding
Endpoint: E-score
Sequence = ACCCGGAA; value = -0.173
Sequence = AATACGAG; value = 0.196
Sequence = AGGCTCAG; value = -0.0699
Sequence = TACTTTAA; value = 0.238
Sequence = GAGACCGA; value = -0.279
Sequence = CCGCGGTC; value = -0.427
Sequence = CAGAAGAA; value = -0.0689
Sequence = AATACTGT; value = 0.247
Sequence = CCGATGTC; value = -0.161
Sequence = CTCCACCC; value = -0.248
Sequence = TAATTTAA; value = 0.299
Sequence = CTTTACAA; value = 0.0999
Sequence = TACGCGTA; value = 0.0253
Sequence = CAACGAGG; value = -0.0238
Sequence = CTTTCTAC; value = 0.0646
Sequence = AGGAGCGG; value = -0.3

Set 3
Target: Prothrombin, mature alpha-thrombin (F2, Homo sapiens, UniProt P00734)
Method: aptamer microarray, sandwich
Form: DNA with 2'F-ANA
Matrix: in vitro
Concentration: 200 nM
Setting: whole 15-mer aptamer, many near background
Added: Cy3 exosite-II aptamer, 400 nM
Reading: higher = stronger binding
Endpoint: mean fluorescence intensity
Sequence: GGTTGGTGTGGTTGG
Modification = 2'F-ANA at 2 3 5 6 8 11 12 14 15; value = 57.9 a.u.
Modification = 2'F-ANA at 1 2 5 6 15; value = 59.7 a.u.
Modification = 2'F-ANA at 4 5 7 8 11 13 14; value = 43.3 a.u.
Modification = 2'F-ANA at 1 2 4 6 7 8 9 10 11 15; value = 53.5 a.u.
Modification = 2'F-ANA at 2 5 6 7 10 15; value = 53.2 a.u.
Modification = 2'F-ANA at 1 4 6 8 9 10 13 14 15; value = 60.2 a.u.
Modification = 2'F-ANA at 1 2 4 6 9 10 11 14; value = 49.3 a.u.
Modification = 2'F-ANA at 1 3 5 7 9 10 11 13 14; value = 48.2 a.u.
Modification = 2'F-ANA at 5 6 8 10 12 13; value = 48.4 a.u.
Modification = 2'F-ANA at 1 2 4 5 7 14; value = 46.9 a.u.
Modification = 2'F-ANA at 4 5 6 7 8 9 10 12 13 14; value = 43.5 a.u.
Modification = 2'F-ANA at 2 5 7 8 10 13; value = 53.9 a.u.
Modification = 2'F-ANA at 1 2 5 9 10 11 12 13 15; value = 51.1 a.u.
Modification = 2'F-ANA at 1 2 4 7 8 10 11 15; value = 48.7 a.u.
Modification = 2'F-ANA at 6 8 11 13 15; value = 378 a.u.
Modification = 2'F-ANA at 1 3 7 9 10 11 12 13; value = 96.9 a.u.
Modification = 2'F-ANA at 2 3 4 5 6 7 8 9 11 14 15; value = 82.6 a.u.
Modification = 2'F-ANA at 1 2 4 6 8 15; value = 181 a.u.
Modification = 2'F-ANA at 2 3 5 7 10 12 15; value = 62.4 a.u.
Modification = 2'F-ANA at 2 3 4 5 8 10 11 14; value = 48.9 a.u.

Set 4
Target: RNA binding protein fox-1 homolog 2, RRM domain, GST-SBP tag (RBFOX2, Homo sapiens, UniProt O43251-10, residues 100-194)
Method: RNA Bind-n-Seq
Form: RNA
Matrix: in vitro
Concentration: 365 nM
Setting: natural RNA segment, single round, ends assumed
Baseline: no-protein control
Reading: higher = stronger binding
Endpoint: RBNS enrichment (R)
All sequences stand within: GGGAGUUCUACAGUCCGACGAUC … UGGAAUUCUCGGGUGCCAA
Residues (chain): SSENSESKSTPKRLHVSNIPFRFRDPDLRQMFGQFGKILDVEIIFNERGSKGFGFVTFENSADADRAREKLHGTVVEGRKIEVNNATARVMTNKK
Sequence = CCAUACCUUUAGGCUUGGUAAGGGAGAAAGCCCGAGCUGUACUGCAGUCUGAUUGCUGUGUUACAAGGACCCAGCUGAGCUGAUGUCAUUCGCACUGCCUCUGUUGCUUC; value = 0.339
Sequence = GCUGCAGUUCAAUACAACUGCUCUUUUCACACGACUCCCUAAACUCCUUGUAACCUUCUGUAACUAUUGGAUGACGCUUUCUCCAGCUUAGCCCUAAAUAAAGCACAGUU; value = 0.3
Sequence = UGCUGCAUACAGCGGGCACAGAUGCAUCUUGUUACAUGUAAGAAAAAGCUGUAUUUGAACAGAGCAUGCGUUUAAAGCCCUUAACAAAUUCAUCACAUAAUCUUAAAUUG; value = 6.43
Sequence = CGACUGCUGACCCCCUGGGCCAGGUGAGGUUGGGGCCUGUGGGCCGCCAGUCCAUACGGUGCUGUCACUGCCCAUCUUCGGUGACACCCUGGGGUGAGGUGCUCAGCACC; value = 0.192
Sequence = UGCCCCCUCAUGAUCCUCGUUCCCUCUCACUGCUCCCCUUUGCUGGGGAGUGAGGGUGGAACCUAUGAGGAAAACAGCUCAGGUUUUAUUGCUGGGAAUAGACAACCUCA; value = 0.246
Sequence = AAAGGGAACACACCCAAUUUUAUGUUAAGGUGAAACCAGCAGUUUGCUUCUUUUAUUAGUAAUGUGGAUUGAUGUUUUCUCAGAGUAACUCGUUGUCUUUUCGCUUGAAA; value = 0.27
Sequence = ACCACAGCAACCUACUGUAUAUUUUCUCCCUGAAAUCCUGCCCUCUGUCUUUGCACUUAGCUGUUCAAGUAUUGCCUUGGAUUUACAAAAUACAAGGGAUGGGGAAAUCU; value = 0.531
Sequence = UUCUCACCAAACUUCAUGUAUAAAUAAAAUACAUAUUUUUAAAACAAACCAAUAAAUGGCUUACAUGCCUGGUCUAGGCUCUGUCCUUGUGCUGAGAUUUGACAAGAGUG; value = 0.481
Sequence = GCUCUAACCCCAAAUUCUAGUAUCCAAAAGUAUUUUUAUUUGUAUAAUGCUAUCUGAAAAAUGUGUUUAUAUUAUAUUUUCAGAGCUGCAAUUCUUAUUCGCCAUUUCAA; value = 0.816
Sequence = CUUGCAGAAUCGUCUUCAUUUCAUCAGACCUAUUGGGGGUGAACAGUAAUUAAUAGGAGGCCCAGCCUGGCAGACGCUUGCUGACGCUCCUUGGCUCUUGCCUGCUUGUC; value = 0.552
Sequence = UCAGCUGGUCAUUUACCAGGUGUGGACUUAAGUUGCUAGGCUUGCAGUAAGAAUUGCCAGCCACUCAUUGUGCGGGUCUGCGUGGAGCUUUAAUCAGAAAAAGCCUCCAC; value = 0.288
Sequence = ACUGGGUACGCUGGACUUGGAGAGGUGACGAGAGUUUCAUGGAGAGAAAAGAGGAAACUUGGGGGGGGCGGAGUUUCCCCCACCCAAUUACCUAGCAGGAGUCGUGGAAA; value = 1.07

Set 5
Target: Centromere-binding protein 1, full length, His-tagged (CBF1, Saccharomyces cerevisiae, UniProt P17106, residues 1-351)
Chain of UniProt P17106 (whole entry, looked up): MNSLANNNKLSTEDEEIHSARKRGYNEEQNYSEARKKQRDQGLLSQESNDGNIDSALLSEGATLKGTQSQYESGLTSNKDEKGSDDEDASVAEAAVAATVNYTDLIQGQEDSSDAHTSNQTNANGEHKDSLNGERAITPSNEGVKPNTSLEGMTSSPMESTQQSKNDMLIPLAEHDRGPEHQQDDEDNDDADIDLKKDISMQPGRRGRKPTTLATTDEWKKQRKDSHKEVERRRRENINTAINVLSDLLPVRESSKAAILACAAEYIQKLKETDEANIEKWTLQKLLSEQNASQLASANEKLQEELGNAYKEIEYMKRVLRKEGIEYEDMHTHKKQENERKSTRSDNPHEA
Method: competition protein-binding microarray
Form: double-stranded DNA, one strand shown
Matrix: in vitro
Concentration: 2 µM
Setting: whole 60-bp probe, lowest competitor level
Added: Pho4 competitor, 0.05 µM
Reading: higher = stronger binding
Endpoint: fluorescence intensity
All sequences stand within: … GTCTTGATTCGCTTGACGCTGCTG
Sequence = TCAAAGCCTTACTGGCACGCATCCTGATGGGGACGC; value = 71.6 a.u.
Sequence = CATACCCAACCTTTTCACGTGAGTTAAGATATTTGT; value = 1110 a.u.
Sequence = CATACCCAACCTTGATACGTGGGTGAAGATATTTGT; value = 70.4 a.u.
Sequence = CCGGCTTCAATCGTCCCCGTGCCAGATAAACCAAAA; value = 218 a.u.
Sequence = AAATTACTAAGTTGGAGTGTGGGTGACGCCGTATGA; value = 60.7 a.u.
Sequence = CTTGGTTATCTTTGACATGTGTTTCGTTCAGGCGAG; value = 184 a.u.
Sequence = CTAACGAAGGTTTTTCACGTGGATTACAAGCCAAGT; value = 541 a.u.
Sequence = CTTTGTGATAGGCTTCACGTGTGAAATTGACACAGA; value = 871 a.u.
Sequence = TGTCTTATCTGCTCCTTTGTGATATTACGGTCTCAA; value = 64.7 a.u.
Sequence = TAGAGGAAAGAAAGAAACGTGGGTAAAACAGGGGCC; value = 97.2 a.u.
Sequence = AAATTACTAAGTTGTGATGTGGGTGACGCCGTATGA; value = 73.5 a.u.
Sequence = CATACCCAACCTTGCAATGTGGGTGAAGATATTTGT; value = 77.3 a.u.
Sequence = AAAGCGGTAATTTGAGTCGTGGGTGCAGATATCTAT; value = 77.5 a.u.
Sequence = GGTGAAGCCGGTATCGTCGTGCCGACCGCAGACTAC; value = 65.9 a.u.
Sequence = TTCAAGGATCGAAAGCACGTCGCATAATACGGTAAT; value = 79.7 a.u.
Sequence = CGGGGTTAAGTTTGCTAAGTGGGTGGCTTGCAGCAG; value = 89.8 a.u.
Sequence = GCACTGATGCAGCCGTGCGTGTAACTAAAACATTTA; value = 64.7 a.u.
Sequence = CATACCCAACCTTGATGAGTGGGTGAAGATATTTGT; value = 76.7 a.u.
Sequence = CGTCCTAGTGATTGTGCAGTGGGTGCCATGAGGAAG; value = 84.5 a.u.
Sequence = CGGGGTTAAGTTTGGCTGGTGGGTGGCTTGCAGCAG; value = 63.2 a.u.
Sequence = CAGTGGAAACAAGAAAACGTGCTAAATCCAGAACTC; value = 236 a.u.
Sequence = AAACAAATGGTAATCCACGTGAATAATTGAGACAAA; value = 844 a.u.
Sequence = CATACCCAACCTTGGTCAGTGGGTGAAGATATTTGT; value = 70.6 a.u.
Sequence = CGTCCTAGTGATTGTCTTGTGGGTGCCATGAGGAAG; value = 84.7 a.u.
Sequence = CTCCGAAAAGAATAGCATGTGCAAGATGAGTTACCG; value = 178 a.u.
